Assay results collected from several papers.
Numbered parts are unrelated; each lists some results of a single study.
Chain of UniProt P53355 (whole entry, looked up): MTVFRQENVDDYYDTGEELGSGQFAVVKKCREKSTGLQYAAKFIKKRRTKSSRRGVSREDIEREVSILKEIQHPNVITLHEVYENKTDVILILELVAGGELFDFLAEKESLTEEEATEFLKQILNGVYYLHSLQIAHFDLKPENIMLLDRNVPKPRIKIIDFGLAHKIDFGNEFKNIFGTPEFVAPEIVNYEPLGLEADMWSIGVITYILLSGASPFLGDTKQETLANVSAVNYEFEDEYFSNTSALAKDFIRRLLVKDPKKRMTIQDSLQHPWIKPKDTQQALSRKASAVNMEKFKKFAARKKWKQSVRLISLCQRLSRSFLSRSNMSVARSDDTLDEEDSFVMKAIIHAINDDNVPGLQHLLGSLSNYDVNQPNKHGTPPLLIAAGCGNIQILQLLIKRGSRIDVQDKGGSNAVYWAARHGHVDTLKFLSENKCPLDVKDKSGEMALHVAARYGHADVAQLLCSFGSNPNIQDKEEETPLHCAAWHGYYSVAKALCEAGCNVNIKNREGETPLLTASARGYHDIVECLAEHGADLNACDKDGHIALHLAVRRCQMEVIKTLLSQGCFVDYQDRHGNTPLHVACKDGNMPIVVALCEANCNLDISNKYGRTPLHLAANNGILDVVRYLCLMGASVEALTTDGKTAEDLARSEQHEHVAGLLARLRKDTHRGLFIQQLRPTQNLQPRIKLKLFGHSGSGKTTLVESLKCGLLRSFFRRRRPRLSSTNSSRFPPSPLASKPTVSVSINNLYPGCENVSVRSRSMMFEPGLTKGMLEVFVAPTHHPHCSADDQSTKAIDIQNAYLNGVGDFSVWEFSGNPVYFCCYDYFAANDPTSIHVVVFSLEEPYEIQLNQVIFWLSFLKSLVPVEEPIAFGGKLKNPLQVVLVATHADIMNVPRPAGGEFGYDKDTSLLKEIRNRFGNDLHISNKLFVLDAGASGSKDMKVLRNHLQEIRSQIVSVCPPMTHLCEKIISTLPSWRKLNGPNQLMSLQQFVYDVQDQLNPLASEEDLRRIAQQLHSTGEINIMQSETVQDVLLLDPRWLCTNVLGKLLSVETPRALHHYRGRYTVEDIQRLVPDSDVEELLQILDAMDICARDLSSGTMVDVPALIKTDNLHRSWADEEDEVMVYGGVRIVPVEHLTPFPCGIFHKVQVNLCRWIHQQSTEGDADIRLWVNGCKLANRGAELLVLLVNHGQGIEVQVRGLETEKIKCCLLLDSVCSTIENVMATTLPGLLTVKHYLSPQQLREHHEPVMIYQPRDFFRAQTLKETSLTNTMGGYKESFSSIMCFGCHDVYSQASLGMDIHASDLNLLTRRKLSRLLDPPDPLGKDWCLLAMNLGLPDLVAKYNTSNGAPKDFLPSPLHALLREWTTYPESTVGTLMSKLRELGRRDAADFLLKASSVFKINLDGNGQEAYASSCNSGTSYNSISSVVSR
Chain of UniProt P53667 (whole entry, looked up): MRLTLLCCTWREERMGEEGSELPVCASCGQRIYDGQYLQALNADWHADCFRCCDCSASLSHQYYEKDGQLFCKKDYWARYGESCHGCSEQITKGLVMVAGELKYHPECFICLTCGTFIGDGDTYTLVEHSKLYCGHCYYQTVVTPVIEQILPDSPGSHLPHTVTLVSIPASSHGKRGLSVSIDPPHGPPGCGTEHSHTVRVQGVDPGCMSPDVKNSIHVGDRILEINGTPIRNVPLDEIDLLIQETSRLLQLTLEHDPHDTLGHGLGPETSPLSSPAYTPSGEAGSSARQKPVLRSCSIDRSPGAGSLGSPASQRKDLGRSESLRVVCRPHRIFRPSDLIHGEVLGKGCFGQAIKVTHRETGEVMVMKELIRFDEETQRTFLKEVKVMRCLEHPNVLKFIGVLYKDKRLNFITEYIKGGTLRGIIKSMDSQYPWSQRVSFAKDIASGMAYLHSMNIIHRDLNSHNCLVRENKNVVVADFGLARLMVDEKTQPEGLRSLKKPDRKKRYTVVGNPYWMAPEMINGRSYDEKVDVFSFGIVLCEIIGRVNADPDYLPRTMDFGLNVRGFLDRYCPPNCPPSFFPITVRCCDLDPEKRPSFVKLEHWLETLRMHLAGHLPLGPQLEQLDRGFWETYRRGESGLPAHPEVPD
Chain of UniProt P42336 (whole entry, unmodified, looked up): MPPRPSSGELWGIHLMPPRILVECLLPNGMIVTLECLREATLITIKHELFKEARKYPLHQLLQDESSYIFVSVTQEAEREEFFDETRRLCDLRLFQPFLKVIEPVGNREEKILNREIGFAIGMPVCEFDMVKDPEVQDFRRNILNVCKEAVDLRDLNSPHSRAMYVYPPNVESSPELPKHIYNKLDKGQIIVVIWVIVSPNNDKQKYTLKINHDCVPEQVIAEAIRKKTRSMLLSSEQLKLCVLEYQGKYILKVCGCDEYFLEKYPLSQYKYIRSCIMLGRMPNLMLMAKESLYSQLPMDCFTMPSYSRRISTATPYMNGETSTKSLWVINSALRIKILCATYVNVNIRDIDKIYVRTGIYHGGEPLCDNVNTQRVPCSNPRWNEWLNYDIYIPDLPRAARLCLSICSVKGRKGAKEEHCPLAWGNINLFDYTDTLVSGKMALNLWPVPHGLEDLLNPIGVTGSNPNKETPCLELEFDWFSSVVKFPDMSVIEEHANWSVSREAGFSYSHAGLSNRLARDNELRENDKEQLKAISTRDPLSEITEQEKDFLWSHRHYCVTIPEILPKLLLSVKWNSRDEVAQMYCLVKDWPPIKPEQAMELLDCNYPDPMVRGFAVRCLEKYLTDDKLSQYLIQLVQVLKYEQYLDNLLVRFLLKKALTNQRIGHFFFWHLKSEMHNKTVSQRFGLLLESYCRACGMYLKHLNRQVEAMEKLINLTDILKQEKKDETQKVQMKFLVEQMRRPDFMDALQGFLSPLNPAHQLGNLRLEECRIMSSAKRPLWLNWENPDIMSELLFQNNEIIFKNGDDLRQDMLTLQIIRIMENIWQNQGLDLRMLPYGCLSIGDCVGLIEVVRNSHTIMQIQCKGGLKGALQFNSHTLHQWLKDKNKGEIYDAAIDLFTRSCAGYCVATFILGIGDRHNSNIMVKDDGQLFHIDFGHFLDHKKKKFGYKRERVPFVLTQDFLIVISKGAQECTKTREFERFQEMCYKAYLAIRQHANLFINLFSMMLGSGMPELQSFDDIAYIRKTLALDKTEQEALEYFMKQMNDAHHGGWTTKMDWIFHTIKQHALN
Chain of UniProt Q9UIK4 (whole entry, looked up): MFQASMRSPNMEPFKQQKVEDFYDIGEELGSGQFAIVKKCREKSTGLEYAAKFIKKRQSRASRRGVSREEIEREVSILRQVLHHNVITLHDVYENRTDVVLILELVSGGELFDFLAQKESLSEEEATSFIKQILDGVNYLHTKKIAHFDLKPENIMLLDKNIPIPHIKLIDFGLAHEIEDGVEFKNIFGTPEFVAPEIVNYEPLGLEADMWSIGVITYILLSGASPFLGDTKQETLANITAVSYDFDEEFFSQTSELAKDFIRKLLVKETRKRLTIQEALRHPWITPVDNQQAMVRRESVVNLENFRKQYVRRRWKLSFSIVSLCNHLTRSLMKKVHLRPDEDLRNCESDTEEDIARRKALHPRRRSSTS
Chain of UniProt P31152 (whole entry, looked up): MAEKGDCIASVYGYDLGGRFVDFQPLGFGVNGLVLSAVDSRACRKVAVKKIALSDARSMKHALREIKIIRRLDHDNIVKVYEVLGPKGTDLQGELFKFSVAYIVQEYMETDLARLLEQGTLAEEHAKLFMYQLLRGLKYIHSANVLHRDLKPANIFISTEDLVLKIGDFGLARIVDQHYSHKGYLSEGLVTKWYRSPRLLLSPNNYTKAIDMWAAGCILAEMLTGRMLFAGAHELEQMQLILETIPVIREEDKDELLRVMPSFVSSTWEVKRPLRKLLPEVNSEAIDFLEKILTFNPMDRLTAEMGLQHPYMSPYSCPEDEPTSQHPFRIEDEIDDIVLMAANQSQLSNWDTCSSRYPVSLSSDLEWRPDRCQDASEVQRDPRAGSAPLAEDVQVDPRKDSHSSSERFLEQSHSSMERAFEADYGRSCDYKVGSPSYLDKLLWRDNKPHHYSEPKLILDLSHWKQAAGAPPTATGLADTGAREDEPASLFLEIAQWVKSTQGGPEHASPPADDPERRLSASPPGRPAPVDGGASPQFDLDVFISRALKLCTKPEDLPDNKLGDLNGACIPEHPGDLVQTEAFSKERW
Chain of UniProt O94768 (whole entry, looked up): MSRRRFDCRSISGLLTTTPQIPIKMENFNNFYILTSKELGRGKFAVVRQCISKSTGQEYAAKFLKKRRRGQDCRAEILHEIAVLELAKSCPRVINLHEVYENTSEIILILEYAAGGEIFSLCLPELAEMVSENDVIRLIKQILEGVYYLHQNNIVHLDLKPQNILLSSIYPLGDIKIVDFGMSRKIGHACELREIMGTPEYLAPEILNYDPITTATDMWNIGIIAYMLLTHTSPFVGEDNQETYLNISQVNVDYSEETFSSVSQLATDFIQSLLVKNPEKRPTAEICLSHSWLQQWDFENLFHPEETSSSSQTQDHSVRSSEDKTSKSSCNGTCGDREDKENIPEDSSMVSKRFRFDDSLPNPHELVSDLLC
Chain of UniProt Q8TDR2 (whole entry, looked up): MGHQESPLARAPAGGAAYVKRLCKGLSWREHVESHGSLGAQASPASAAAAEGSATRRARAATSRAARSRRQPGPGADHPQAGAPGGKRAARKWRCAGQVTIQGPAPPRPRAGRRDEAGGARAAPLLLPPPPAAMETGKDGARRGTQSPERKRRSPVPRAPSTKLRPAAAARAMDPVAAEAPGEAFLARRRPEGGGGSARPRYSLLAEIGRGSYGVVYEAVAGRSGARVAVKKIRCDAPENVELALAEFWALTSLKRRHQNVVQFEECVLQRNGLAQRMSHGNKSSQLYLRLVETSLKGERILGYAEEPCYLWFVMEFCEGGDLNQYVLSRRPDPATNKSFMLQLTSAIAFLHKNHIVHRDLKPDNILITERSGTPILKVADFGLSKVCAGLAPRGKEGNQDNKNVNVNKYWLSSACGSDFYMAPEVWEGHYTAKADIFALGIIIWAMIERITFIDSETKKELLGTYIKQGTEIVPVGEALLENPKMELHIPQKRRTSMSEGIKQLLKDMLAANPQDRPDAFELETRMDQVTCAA

Study 1 — read-out: cell-free assay; method: competition with immobilised ligand; concentration: 1 µM
Structure (SMILES): O=C(NC[C@@H]1[C@H]2CN(C(=O)OCc3cc(C(F)(F)F)cc(C(F)(F)F)c3)C[C@@H]12)c1ccc2[nH]nnc2c1
| target | remaining binding [%] |
| --- | --- |
| LRRK2 (Homo sapiens, UniProt Q5S007, G2019S) | 91 |
| PIK3CA (Homo sapiens, UniProt P42336, E545K) | 100 |
| DAPK2 (Homo sapiens, UniProt Q9UIK4) | 85 |
| CDC42BPA (Homo sapiens, UniProt Q5VT25) | 100 |
| Ribosomal protein S6 kinase alpha-5, C-terminal kinase domain (RPS6KA5, Homo sapiens, UniProt O75582) | 100 |
| SYK (Homo sapiens, UniProt P43405) | 100 |
| STK35 (Homo sapiens, UniProt Q8TDR2) | 100 |
| MAP4K3 (Homo sapiens, UniProt Q8IVH8) | 89 |
| IGF1R (Homo sapiens, UniProt P08069) | 100 |
| LIM domain kinase 1 (LIMK1, Homo sapiens, UniProt P53667) | 100 |
| CHEK1 (Homo sapiens, UniProt O14757) | 92 |
| CSNK2A1 (Homo sapiens, UniProt P68400) | 84 |
| STK17B (Homo sapiens, UniProt O94768) | 91 |
| MAPK4 (Homo sapiens, UniProt P31152) | 80 |
| PKMYT1 (Homo sapiens, UniProt Q99640) | 100 |
| ANKK1 (Homo sapiens, UniProt Q8NFD2) | 73 |
| PRPF4B (Homo sapiens, UniProt Q13523) | 100 |
| DAPK1 (Homo sapiens, UniProt P53355) | 93 |
| Tyrosine-protein kinase ABL1, non-phosphorylated (ABL1, Homo sapiens, UniProt P00519, T315I) | 82 |
| MAPK6 (Homo sapiens, UniProt Q16659) | 88 |
| CDK7 (Homo sapiens, UniProt P50613) | 92 |

Study 2 — organism: Sarcocystis neurona; read-out: parasite growth; concentration: 10 µM
| SMILES | inhibition [%] |
| --- | --- |
| NS(=O)(=O)c1cc2c(cc1C(F)(F)F)NC(Cc1ccccc1)NS2(=O)=O (stereo not shown) | -22.4 |
| CCC(C)(C)C(=O)O[C@H]1C[C@@H](C)C=C2C=C[C@H](C)[C@H](CC[C@@H]3C[C@@H](O)CC(=O)O3)[C@H]21 | -28.4 |
| CCN(CC)CC#CCOC(=O)C(O)(c1ccccc1)C1CCCCC1 (stereo not shown) | -21.3 |
| Nc1ccc2cn[nH]c2c1 | -26.2 |
| COc1ccc([C@@H]2Sc3ccccc3N(CCN(C)C)C(=O)[C@@H]2OC(C)=O)cc1 | 2.1 |
| c1ccc(CC2=NCCN2)cc1 | -28.3 |
| COc1ccc(CC2c3cc(OC)c(OC)cc3CC[N+]2(C)CCC(=O)OCCCCCOC(=O)CC[N+]2(C)CCc3cc(OC)c(OC)cc3C2Cc2ccc(OC)c(OC)c2)cc1OC (stereo not shown) | 6.6 |
| COc1ccc2[nH]c([S+]([O-])Cc3ncc(C)c(OC)c3C)nc2c1 (stereo not shown) | -22.3 |
| C[n+]1ccccc1/C=N/O | -28.9 |

Study 3 — read-out: enzyme activity; action: inhibitor; concentration: 0.5 µM; relative to: control
Target: Serine/threonine-protein kinase D2 (PRKD2, Homo sapiens, UniProt Q9BZL6)
Construct (Q9BZL6 1-878): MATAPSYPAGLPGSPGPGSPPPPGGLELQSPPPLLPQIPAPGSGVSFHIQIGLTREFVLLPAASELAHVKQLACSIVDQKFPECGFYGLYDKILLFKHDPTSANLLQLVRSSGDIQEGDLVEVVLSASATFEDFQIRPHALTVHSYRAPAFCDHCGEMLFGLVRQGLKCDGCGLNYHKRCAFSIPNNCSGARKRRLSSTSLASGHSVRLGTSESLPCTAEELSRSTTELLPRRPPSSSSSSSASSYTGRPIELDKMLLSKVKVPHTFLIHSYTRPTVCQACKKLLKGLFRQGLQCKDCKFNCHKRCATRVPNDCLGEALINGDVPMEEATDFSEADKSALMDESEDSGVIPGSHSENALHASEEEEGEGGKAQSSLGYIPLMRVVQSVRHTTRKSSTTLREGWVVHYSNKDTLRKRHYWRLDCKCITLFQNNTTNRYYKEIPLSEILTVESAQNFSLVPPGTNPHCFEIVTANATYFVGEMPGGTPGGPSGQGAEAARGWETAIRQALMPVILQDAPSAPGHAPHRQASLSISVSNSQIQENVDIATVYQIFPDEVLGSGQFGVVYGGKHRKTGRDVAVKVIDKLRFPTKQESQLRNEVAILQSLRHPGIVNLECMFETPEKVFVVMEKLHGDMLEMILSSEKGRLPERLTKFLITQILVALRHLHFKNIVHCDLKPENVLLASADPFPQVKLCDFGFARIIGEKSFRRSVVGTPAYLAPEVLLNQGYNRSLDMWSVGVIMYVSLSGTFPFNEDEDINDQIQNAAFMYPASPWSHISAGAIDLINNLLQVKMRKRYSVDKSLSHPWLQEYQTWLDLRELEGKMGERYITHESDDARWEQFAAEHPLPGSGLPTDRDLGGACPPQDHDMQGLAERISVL
| Structure (SMILES) | remaining activity |
| --- | --- |
| Nc1[nH]nc2nc3ccccc3nc12 | 94.5% |
| NCCNc1ncc(C(N)=O)c(Nc2cccc(C(F)(F)F)c2)n1 | 33% |
| O=c1c2ccccc2[nH]c(=S)n1CCN1CCC(=C(c2ccc(F)cc2)c2ccc(F)cc2)CC1 | 98.9% |
| Cn1c2ccccc2c2c3c(c4c5ccccc5n(CCC#N)c4c21)CNC3=O | 18.7% |
| COc1cc2nccc(Oc3ccc(NC(=S)NC(=O)c4ccccc4C)cc3)c2cc1OC | 86.8% |
| Cc1nc(-c2ccccc2)c(-c2ccncc2)o1 | 97.7% |
| CN(C)c1ccc(C=C2C(=O)Nc3ccccc32)cc1 | 95.2% |
| O=C1NC(=O)C(c2cn(CCCO)c3ncccc23)=C1c1cnccn1 | 118% |
| Nc1ccc2ncnc(NCCc3ccc(Oc4ccccc4)cc3)c2c1 | 98.2% |
| O=S(=O)(c1cccc2cnccc12)N1CCCNCC1 | 85% |
| CC(C)[C@H](CO)Nc1nc(Nc2cc(N)cc(Cl)c2)c2ncn(C(C)C)c2n1 | 103% |
| COc1ccc(OC)c2c(=S)c3ccccc3[nH]c12 | 88.1% |
| C#Cc1cccc(Nc2ncnc3cc(OCCOC)c(OCCOC)cc23)c1 | 85.9% |
| CCOC(=O)c1c(C)[nH]c(/C=C2\C(=O)Nc3ccccc32)c1C | 97.1% |
| O=C(O)c1ccc2c3c1cccc3c(=O)n1c3ccccc3nc21 | 86.8% |

Other studies, line by line
| Compound | test system | setting | quantity | result |
| --- | --- | --- | --- | --- |
| CC(C)n1cnc(-c2ccc(F)cc2)c1-c1ncc(C(=O)Nc2ccc(N3CCN(C)CC3)cc2)[nH]1 | IPF patients | 30 mg once daily, adverse event | Dyspnoea incidence | 0% |
